Experimental data gathered from unrelated publications.
Every numbered part comes from another study and shows a few of its results, in no order. Values joined by “and” are separate records of one study, mostly repeats; a detail may differ.
Sequence of UniProt P54760 (whole entry, looked up): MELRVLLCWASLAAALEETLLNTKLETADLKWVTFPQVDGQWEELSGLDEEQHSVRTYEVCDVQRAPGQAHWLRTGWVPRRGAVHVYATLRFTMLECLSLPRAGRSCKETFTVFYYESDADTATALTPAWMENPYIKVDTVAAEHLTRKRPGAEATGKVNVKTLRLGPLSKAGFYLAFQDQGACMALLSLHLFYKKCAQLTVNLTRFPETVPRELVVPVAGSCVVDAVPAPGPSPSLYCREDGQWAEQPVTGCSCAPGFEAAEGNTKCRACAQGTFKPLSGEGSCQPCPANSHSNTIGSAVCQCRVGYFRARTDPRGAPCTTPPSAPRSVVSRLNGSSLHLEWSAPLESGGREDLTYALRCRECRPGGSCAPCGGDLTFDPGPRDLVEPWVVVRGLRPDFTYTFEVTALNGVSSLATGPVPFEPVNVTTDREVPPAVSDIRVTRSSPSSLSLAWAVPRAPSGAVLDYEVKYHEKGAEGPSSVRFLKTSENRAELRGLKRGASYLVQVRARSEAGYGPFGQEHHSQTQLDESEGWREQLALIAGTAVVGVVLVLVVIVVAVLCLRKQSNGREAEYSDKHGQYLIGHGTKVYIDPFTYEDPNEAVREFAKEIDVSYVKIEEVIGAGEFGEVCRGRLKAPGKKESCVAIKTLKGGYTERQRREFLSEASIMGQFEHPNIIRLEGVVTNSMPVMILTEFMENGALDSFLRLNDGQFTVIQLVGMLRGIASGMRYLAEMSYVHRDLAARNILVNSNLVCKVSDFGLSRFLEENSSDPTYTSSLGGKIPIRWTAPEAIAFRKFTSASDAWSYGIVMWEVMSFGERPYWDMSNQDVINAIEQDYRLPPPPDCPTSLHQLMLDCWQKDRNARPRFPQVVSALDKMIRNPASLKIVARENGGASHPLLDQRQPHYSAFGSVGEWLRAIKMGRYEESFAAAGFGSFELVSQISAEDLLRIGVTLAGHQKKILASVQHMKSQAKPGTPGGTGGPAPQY
Sequence of UniProt Q99558 (whole entry, looked up): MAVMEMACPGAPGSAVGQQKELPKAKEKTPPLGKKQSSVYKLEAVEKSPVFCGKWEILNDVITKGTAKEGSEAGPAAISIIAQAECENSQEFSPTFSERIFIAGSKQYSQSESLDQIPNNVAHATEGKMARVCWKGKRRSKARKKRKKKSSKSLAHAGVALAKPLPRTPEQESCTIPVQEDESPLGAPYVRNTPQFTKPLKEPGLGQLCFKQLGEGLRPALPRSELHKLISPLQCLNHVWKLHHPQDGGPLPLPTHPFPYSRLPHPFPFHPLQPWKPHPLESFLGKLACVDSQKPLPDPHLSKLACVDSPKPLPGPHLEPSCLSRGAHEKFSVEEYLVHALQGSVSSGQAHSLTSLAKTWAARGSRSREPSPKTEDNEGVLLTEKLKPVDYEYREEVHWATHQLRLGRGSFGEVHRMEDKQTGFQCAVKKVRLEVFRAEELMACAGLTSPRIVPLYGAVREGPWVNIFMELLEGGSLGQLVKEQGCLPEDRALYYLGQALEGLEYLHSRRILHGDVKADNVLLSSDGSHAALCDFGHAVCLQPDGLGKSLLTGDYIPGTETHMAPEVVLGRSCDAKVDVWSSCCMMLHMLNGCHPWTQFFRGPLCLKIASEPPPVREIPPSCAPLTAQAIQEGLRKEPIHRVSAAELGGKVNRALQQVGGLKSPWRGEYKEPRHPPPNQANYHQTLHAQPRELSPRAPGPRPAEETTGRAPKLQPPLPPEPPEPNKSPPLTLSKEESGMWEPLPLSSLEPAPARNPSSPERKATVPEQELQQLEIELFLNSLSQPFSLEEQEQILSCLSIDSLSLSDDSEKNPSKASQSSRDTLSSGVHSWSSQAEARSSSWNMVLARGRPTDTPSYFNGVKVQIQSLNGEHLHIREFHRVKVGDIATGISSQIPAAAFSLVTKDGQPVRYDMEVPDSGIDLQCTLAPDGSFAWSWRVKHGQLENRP
Sequence of UniProt P29376 (whole entry, looked up): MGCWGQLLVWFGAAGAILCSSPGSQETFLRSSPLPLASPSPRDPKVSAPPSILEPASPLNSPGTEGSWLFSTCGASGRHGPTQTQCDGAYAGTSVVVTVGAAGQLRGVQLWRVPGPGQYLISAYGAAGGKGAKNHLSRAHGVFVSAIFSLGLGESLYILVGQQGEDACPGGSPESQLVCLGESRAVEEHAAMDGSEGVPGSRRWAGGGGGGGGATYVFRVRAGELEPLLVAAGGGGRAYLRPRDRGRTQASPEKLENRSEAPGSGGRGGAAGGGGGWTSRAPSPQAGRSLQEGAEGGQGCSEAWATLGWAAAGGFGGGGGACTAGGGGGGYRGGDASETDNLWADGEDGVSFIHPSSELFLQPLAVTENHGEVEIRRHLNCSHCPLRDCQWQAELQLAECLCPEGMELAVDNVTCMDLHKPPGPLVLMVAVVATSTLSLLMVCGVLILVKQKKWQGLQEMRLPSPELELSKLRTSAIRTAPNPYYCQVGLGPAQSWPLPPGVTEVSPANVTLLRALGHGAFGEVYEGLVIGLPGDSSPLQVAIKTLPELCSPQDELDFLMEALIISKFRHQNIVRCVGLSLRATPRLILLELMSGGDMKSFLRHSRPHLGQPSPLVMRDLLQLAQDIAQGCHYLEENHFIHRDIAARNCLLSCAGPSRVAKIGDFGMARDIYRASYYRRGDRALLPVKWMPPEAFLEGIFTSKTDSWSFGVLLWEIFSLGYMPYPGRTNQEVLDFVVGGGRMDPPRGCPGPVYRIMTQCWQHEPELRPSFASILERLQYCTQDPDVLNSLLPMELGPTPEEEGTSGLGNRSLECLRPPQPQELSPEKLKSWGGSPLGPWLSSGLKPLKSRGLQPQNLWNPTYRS
Sequence of UniProt Q08345 (whole entry, looked up): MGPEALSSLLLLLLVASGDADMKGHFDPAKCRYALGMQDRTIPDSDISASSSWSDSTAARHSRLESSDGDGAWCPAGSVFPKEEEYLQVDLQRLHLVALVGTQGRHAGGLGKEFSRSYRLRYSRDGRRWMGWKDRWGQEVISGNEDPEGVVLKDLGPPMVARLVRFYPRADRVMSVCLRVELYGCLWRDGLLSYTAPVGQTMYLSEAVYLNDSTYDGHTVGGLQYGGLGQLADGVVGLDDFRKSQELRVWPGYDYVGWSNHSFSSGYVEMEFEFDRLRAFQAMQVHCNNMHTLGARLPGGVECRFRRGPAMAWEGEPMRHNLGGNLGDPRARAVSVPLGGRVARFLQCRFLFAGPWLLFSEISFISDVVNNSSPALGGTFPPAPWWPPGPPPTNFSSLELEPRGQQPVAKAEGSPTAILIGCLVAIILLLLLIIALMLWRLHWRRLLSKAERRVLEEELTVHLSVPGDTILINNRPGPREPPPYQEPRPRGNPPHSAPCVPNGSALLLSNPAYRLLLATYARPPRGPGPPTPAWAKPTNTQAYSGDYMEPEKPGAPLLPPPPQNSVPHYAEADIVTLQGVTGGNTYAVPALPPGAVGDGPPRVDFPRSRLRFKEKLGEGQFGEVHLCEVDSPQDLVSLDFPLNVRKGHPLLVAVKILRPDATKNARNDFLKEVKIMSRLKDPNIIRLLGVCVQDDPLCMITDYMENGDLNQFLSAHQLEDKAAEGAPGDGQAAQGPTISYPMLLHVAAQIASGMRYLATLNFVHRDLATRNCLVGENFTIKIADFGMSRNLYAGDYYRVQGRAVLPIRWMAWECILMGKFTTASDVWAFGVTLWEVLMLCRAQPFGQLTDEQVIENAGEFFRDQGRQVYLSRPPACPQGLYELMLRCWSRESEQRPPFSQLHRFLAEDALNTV
Sequence of UniProt Q2M2I8 (whole entry, looked up): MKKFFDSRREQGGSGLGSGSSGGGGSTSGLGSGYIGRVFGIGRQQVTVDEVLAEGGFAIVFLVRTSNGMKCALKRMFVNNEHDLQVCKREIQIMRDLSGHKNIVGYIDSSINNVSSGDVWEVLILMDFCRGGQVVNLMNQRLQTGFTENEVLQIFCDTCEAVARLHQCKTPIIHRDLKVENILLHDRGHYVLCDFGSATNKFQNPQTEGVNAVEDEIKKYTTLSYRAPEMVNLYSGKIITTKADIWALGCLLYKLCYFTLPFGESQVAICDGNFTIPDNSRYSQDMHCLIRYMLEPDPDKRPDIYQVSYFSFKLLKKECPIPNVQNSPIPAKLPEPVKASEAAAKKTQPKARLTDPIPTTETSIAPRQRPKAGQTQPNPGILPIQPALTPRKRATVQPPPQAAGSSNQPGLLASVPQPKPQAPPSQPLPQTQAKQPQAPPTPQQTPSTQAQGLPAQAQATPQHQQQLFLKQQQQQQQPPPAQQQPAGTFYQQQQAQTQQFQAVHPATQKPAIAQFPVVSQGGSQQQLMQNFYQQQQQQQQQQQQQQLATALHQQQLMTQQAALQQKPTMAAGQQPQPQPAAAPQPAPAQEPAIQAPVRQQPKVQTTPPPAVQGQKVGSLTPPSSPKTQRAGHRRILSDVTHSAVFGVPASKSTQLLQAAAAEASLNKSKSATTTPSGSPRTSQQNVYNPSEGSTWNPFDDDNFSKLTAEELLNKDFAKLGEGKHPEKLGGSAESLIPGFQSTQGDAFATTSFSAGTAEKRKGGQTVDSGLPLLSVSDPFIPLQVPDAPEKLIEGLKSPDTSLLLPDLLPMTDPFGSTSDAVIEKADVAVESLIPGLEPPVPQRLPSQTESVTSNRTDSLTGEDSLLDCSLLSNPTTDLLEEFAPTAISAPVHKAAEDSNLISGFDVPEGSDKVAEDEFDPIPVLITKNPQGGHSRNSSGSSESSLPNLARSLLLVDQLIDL
Sequence of UniProt P45984 (whole entry, looked up): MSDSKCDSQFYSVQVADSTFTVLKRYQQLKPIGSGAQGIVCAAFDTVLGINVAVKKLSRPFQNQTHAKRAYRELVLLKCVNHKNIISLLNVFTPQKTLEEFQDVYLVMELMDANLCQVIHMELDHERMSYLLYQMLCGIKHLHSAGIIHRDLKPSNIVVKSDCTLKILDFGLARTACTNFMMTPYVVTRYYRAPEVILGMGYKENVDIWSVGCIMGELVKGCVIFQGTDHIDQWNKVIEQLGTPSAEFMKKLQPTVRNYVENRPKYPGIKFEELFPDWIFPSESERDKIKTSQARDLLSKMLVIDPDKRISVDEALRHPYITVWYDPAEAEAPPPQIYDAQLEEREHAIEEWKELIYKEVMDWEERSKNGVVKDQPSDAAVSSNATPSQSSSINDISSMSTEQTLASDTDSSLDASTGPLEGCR

Block 1 — cell line: mouse MPNST tumor cells; method: high-content nuclear imaging; refers to: cell number; tested at: 10 µM; time: 12 h; notes: mean of 2 replicates; reference: plate mean; direction: higher = more cells; quantity: nuclei count
CC(C)[N+](C)(CCOC(=O)C1c2ccccc2Oc2ccccc21)C(C)C: 1.14 z-score
CO/N=C(\C(=O)N[C@@H]1C(=O)N2C(C(=O)OC(C)OC(C)=O)=C(COC(N)=O)CS[C@H]12)c1ccco1 (stereo partly drawn): 1.76 z-score
Nc1cccc(-c2cc3c(Oc4cccc(O)c4)ncnc3[nH]2)c1: -3.28 z-score
O=C1c2ccccc2C(Cc2ccnc(F)c2)(Cc2ccnc(F)c2)c2ccccc21: -0.836 z-score
O=c1cc(NCCCN[C@@H]2CCOc3c(Br)cc(Br)cc32)[nH]c2ccsc12: 2.46 z-score
CCCCN(CCCC)CCC(O)c1cc2c(Cl)cc(Cl)cc2c2cc(C(F)(F)F)ccc12 (stereo not drawn): 0.414 z-score and -0.856 z-score
CC(=O)O[C@H]1C[C@@]2(C)[C@@H](C[C@@H](O)[C@H]3[C@@]4(C)CC[C@@H](O)[C@@H](C)[C@@H]4CC[C@@]32C)/C1=C(\CCC=C(C)C)C(=O)O: 0.492 z-score
CC1(C)SCN(S(=O)(=O)c2ccccc2)C1C(=O)NC(CNC(=O)NCc1ccccc1)C(=O)O (stereo not drawn): 0.0713 z-score
NS(=O)(=O)c1cc2c(cc1Cl)N=C(CSCc1ccccc1)NS2(=O)=O: 2.57 z-score
COc1ccccc1C(=O)Nc1cc2c(cc1N1CCNC[C@H]1C)n(C)c(=O)n2C: 4.11 z-score and 3.3 z-score

Block 2 — tested at: 1 µM; quantity: remaining binding
SMILES: CO[C@@H](C)c1c(Nc2ccc([C@H](N(C)C(=O)C3CCS(=O)(=O)CC3)C(F)(F)F)cc2)cnc2cc(Cl)nn12
CLK1 (Homo sapiens, UniProt P49759); cell-free assay, competition with immobilised ligand: 81%
Tyrosine-protein kinase ABL1, phosphorylated (ABL1, Homo sapiens, UniProt P00519); cell-free assay, competition with immobilised ligand: 59%
TNNI3K (Homo sapiens, UniProt Q59H18); cell-free assay, competition with immobilised ligand: 73%
GAK (Homo sapiens, UniProt O14976); cell-free assay, competition with immobilised ligand: 98%
LRRK2 (Homo sapiens, UniProt Q5S007); cell-free assay, competition with immobilised ligand: 100%
FLT3 (Homo sapiens, UniProt P36888, F691L/ITD); cell-free assay, competition with immobilised ligand: 90%
EPHB4 (Homo sapiens, UniProt P54760); cell-free assay, competition with immobilised ligand: 100%
MAP3K14 (Homo sapiens, UniProt Q99558); cell-free assay, competition with immobilised ligand: 94%
MAPK6 (Homo sapiens, UniProt Q16659); cell-free assay, competition with immobilised ligand: 92%
AAK1 (Homo sapiens, UniProt Q2M2I8); binding: 84%
DDR1 (Homo sapiens, UniProt Q08345); cell-free assay, competition with immobilised ligand: 99%
CIT (Homo sapiens, UniProt O14578); cell-free assay, competition with immobilised ligand: 94%
LTK (Homo sapiens, UniProt P29376); cell-free assay, competition with immobilised ligand: 98%
MAPK9 (Homo sapiens, UniProt P45984); cell-free assay, competition with immobilised ligand: 92%
DCLK1 (Homo sapiens, UniProt O15075); cell-free assay, competition with immobilised ligand: 72%
DYRK1A (Homo sapiens, UniProt Q13627); cell-free assay, competition with immobilised ligand: 75%

Block 3 — cell line: HaCaT; tested at: 100 µM; time: 18 h; quantity: viability
COC(=O)Nc1nc2ccc(C(=O)c3ccccc3)cc2[nH]1: 43.9%
C[C@@H](O[C@H]1OCCN(Cc2nc(O)n(P(=O)(O)O)n2)[C@H]1c1ccc(F)cc1)c1cc(C(F)(F)F)cc(C(F)(F)F)c1: 15.7%
CN(C(=O)CN(CCO)CC(=O)N(C)C(C)(C)Cc1ccccc1)C(C)(C)Cc1ccccc1: 16.3%
CC(C)Oc1ccc2c(=O)c(-c3ccccc3)coc2c1: 97.9%
C/C=C1\[C@H]2C=C(C)C[C@]1(N)c1ccc(=O)[nH]c1C2: 108%
O=C(O)C1=CO[C@@H](O[C@@H]2O[C@H](CO)[C@@H](O)[C@H](O)[C@H]2O)[C@@H]2C(CO)=CC[C@H]12: 108%
CN(C)C(=O)COC(=O)Cc1ccc(OC(=O)c2ccc(NC(=N)N)cc2)cc1: 90.1%
Cc1ccc(S(=O)(=O)NC(=O)NN2CCCCCC2)cc1: 53.2%
CC(N)[C@]12C[C@H]3C[C@H](C[C@H](C3)C1)C2 (stereo partly drawn): 97.2%

Block 4 — effect on: enzyme activity; mode: inhibitor; tested at: 0.5 µM; reference: control; quantity: remaining activity
Target: Serine/threonine-protein kinase D1 (PRKD1, Homo sapiens, UniProt Q15139)
Construct (Q15139 1-912): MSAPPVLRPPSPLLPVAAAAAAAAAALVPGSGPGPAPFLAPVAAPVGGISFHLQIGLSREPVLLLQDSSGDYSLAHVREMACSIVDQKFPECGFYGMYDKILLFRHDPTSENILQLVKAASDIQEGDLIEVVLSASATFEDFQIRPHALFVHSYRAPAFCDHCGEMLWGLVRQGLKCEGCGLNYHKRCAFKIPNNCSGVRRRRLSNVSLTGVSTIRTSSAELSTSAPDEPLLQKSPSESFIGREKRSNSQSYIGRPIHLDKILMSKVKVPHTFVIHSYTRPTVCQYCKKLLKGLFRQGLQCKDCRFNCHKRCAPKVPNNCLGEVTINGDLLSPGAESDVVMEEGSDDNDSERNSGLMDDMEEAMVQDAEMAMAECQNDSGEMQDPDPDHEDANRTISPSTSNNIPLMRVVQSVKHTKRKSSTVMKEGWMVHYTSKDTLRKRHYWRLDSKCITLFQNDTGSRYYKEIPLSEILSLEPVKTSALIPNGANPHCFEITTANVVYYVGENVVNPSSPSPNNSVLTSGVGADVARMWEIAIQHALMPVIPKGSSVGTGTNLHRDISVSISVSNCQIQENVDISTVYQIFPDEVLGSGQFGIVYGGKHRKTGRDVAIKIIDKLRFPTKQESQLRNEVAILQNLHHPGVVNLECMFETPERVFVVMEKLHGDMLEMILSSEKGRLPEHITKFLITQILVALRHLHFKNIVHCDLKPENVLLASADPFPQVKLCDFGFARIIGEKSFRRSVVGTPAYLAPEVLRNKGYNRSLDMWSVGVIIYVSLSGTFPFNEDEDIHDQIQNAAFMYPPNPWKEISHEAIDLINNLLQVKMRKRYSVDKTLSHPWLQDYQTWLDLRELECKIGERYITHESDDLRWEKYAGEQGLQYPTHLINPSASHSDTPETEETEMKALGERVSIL
Ic1cccc(CSc2nnc(-c3ccncc3)o2)c1: 97.6%
COc1cc2ncnc(Nc3cccc(Cl)c3)c2cc1OC: 92.3%
c1ccc(-c2cnc(Nc3ccc(OCCN4CCCC4)cc3)s2)cc1: 78.4%
N#Cc1c(NC(=O)c2cccc3ccccc23)sc2c1CCCC2: 101%
Cc1cn(-c2cc(NC(=O)c3ccc(C)c(Nc4nccc(-c5cccnc5)n4)c3)cc(C(F)(F)F)c2)cn1: 99.7%
COc1cc2c(cc1OC)-c1[nH]nc(Nc3cccc(F)c3)c1C2: 93.6%
CN(C)C[C@H]1CCn2c(c(C3=C(c4cn(C)c5ccccc45)C(=O)NC3=O)c3ccccc32)C1: 101%
CCN(CC)C(=O)c1ccc(Nc2nc(OCC3CCCCC3)c3[nH]cnc3n2)cc1: 62.6%
O=C1C(Cl)=C(N2C(=O)CCC2=O)C(=O)c2ccccc21: 104%
O=C(Nc1cccc(Nc2nccc(Nc3cccc(C(F)(F)F)c3)n2)c1)C1CC1: 94.1%
c1ccc(-c2[nH]ncc2-c2ccnc3ccccc23)nc1: 63%
O=C1c2ccccc2-c2n[nH]c3cccc1c23: 28.6%
Cc1nc2cc3nc(-c4cccs4)cnc3cc2n1C: 97.7%
CN([C@@H](Cc1ccc(OS(=O)(=O)c2cccc3cnccc23)cc1)C(=O)N1CCN(c2ccccc2)CC1)S(=O)(=O)c1cccc2cnccc12: 101%
Cn1nc2c3c(cccc31)C(=O)c1ccccc1-2: 69.3%
CCOc1nc(NC(=O)Cc2cc(OC)ccc2OC)cc(N)c1C#N: 88.4%
COc1cc2ncnc(Nc3ccc(O)c(Br)c3)c2cc1OC: 70.1%
N#C/C(=C\c1ccc(O)c(O)c1)C(=O)NCc1ccccc1: 92.5%
Cc1cc2ncc(-c3ccccc3)nc2cc1C: 100%
CCN(CC)CCNC(=O)c1c(C)[nH]c(/C=C2\C(=O)Nc3ccc(Cl)cc32)c1C: 11.3%
Nc1cccc(-c2cc3c(Oc4cccc(O)c4)ncnc3[nH]2)c1: 94.4%
O=c1cc(-c2cccc3c2Sc2ccccc2S3)oc(N2CCOCC2)c1: 90.3%
